# Experimental data gathered from unrelated publications.
# Each line is one published result; not all experiments were run side by side. Numbers after ± are the reported error.
Structure (SMILES),cell line,test,system,conditions,how to read,endpoint,result
N#Cc1cccc(/C=C/C(=O)c2ccc(O)cc2)c1,U-87 MG,"cell growth, MTT",,72 h,,IC50,5.97 ± 1.5 µM
Cc1c2c(=O)n(-c3ccccn3)n(Cc3ccc(N=[N+]=[N-])cc3)c2cc(=O)n1Cc1cccc(Cl)n1,HEp-2,cytotoxicity,,48 (unit not given),,Hill slope,~-1.14
N#Cc1cccc(-c2cc(CN3c4ccccc4C=Cc4ccccc43)on2)c1,BJ,cytotoxicity,,,,IC50,> 30 µM
Cc1ccc2ccc(C)c(O)c2n1,MDCK-II low-efflux (RRCK) cells,,,"1.5 h, apical to basal",,Papp,4.1 ×10⁻⁶ cm/s
N#Cc1ccc(-c2cc(CN3c4ccccc4C=Cc4ccccc43)on2)cc1,BJ,cytotoxicity,,,,IC50,> 30 µM
CC1(C)C(NC(=O)C(=NOC2(C(=O)O)CC2)c2csc(N)n2)C(=O)N1OS(=O)(=O)O (stereo not drawn),HCoEpiC normal colon epithelial,,,,,CC50,> 100 µM
CCC(=CCc1c(O)cc2c(c1O)C(=O)CC(c1ccc(O)cc1)O2)CC (stereo not drawn),HeLa,"cytotoxicity, MTT",,"48 h, with: S9 fraction",,log IC50,1.08 log µM
O=C(/C=C/c1cc(Br)ccc1F)c1ccc(O)cc1,U-87 MG,"cell growth, MTT",,72 h,,IC50,15.4 ± 0.32 µM
O=C(c1ccc(OCCN2CCCCC2)cc1)c1c(-c2ccc(O)cc2)sc2cc(O[C@@H]3O[C@H](C(=O)O)[C@@H](O)[C@H](O)[C@H]3O)ccc12,cholesterol-loaded Sf9 control vesicles,vesicular transport,,"10 µM, 3 min, pH 7",relative to: AMP control,transport ratio,3.1 ± 0.2
O=[N+]([O-])c1ccccc1-c1cc(CN2c3ccccc3C=Cc3ccccc32)on1,BJ,cytotoxicity,,,,IC50,> 30 µM
CC[C@H](C)[C@H](NC(=O)[C@@H](NC(=O)[C@@H](N)CO)[C@@H](C)CC)C(=O)N[C@@H](CC(N)=O)C(=O)N[C@@H](Cc1ccccc1)C(=O)N[C@@H](CCC(=O)O)C(=O)N[C@@H](CCCCNC(=O)c1ccc2c(c1)C(=O)OC21c2ccc(O)cc2Oc2cc(O)ccc21)C(=O)N[C@@H](CC(C)C)C(=O)O,"PANC-1, microinjected single cells","proteolysis, CE-LIF",within cells,"100 µM, 2 min, 37 °C",,degradation rate,8.9e+06 ± 100000 M⁻¹ s⁻¹
CN1C/C(=C\c2cc(Cl)c(O)c(Cl)c2)C(=O)/C(=C/c2cc(Cl)c(O)c(Cl)c2)C1,PC-12,MTT,,"range over 3.75 to 60 µM, 24 and 48 h",,cytotoxicity,not toxic
Cc1nc2cccc(OCC(C)(C)C(=O)NC(C)C)c2c(N)c1C(=O)[O-].[Na+],human peripheral blood lymphocytes,,,"125 g/mL, 3 h, without S9",,relative mitotic index,89%
O=C1c2c(O)cc(O)cc2-c2c(-c3ccc(O)cc3)oc3cc(O)cc1c23,LCC2 shControl cells,"label-free MS proteomics, refers to: CYP1A1",,10 µM,relative to: DMSO,protein level ratio,7.02
O=C(c1ccc(C23CC(S(F)(F)(F)(F)F)(CO2)C3)cc1)N1CCN(c2ncccn2)CC1,MDCK-LE cells,,,"time not given, apical to basolateral",,recovery,58%
COc1c(F)c(F)c(Cn2c3cc(=O)n(Cc4cccc(Cl)n4)c(C)c3c(=O)n2-c2ccccn2)c(F)c1F,HEp-2,,,48 (unit not given),,CC50,> 5 µM
COc1cc(/C=C2\CNC/C(=C\c3cc(Cl)c(O)c(OC)c3)C2=O)cc(Cl)c1O,PC-12,MTT,,"range over 3.75 to 60 µM, 24 and 48 h",,cytotoxicity,not toxic
O=[N+]([O-])c1ccc(-c2cc(CN3c4ccccc4C=Cc4ccccc43)on2)cc1,BJ,cytotoxicity,,,,IC50,> 30 µM
C=CC(=O)Nc1cc(Nc2nccc(-c3cn(C)c4ccccc34)n2)c(OCC(F)(F)F)nc1N(C)CCN(C)C,human hepatocytes lot LTG,"CYP1A2 enzyme activity, inducer",,0.1 µM,relative to: DMSO,fold induction,1.77
O=[N+]([O-])c1cccc(-c2cc(CN3c4ccccc4C=Cc4ccccc43)on2)c1,BJ,cytotoxicity,,,,IC50,> 30 µM
O=C1C(NCCc2cc(Br)c(O)c(Br)c2)=CC2=NCCc3c[nH]c1c32,HCT-116,"cell growth or viability, MTT",,72 h,,CC50,12 µM
O=C(/C=C/c1cccc(C(F)(F)F)c1)c1cccc(O)c1,U-87 MG,"cell growth, MTT",,72 h,,IC50,7.53 ± 1 µM
O=C1C(=O)c2[nH]cc3c2C(=C1Cl)NCC3,HCT-116,"cell growth or viability, MTT",,72 h,,CC50,25 µM
NCCOCCOCCNC(=O)Cc1ccc(Nc2nc(NCc3ccc(F)cc3)nc(NCC3CCCCC3)n2)cc1,BEAS-2B,"cytotoxicity, CCK-8",,"48 h, 10% FBS",,IC50,47.6 µM
CN(C)c1ccc(-c2cc(CN3c4ccccc4C=Cc4ccccc43)on2)cc1Cl,BJ,cytotoxicity,,,,IC50,> 30 µM
CC[C@H](C)[C@H](N)C(=O)N[C@@H](CC(C)C)C(=O)N[C@@H](CCCNC(=N)N)C(=O)N[C@@H](Cc1c[nH]c2ccccc12)C(=O)N[C@@H](CO)C(=O)N[C@@H](CCCNC(=N)N)C(=O)N[C@@H](CCCCN)C(=O)N[C@@H](CC(C)C)C(=O)N1CCC[C@H]1C(=O)N[C@@H](CS)C(=O)N[C@H](C(=O)N[C@@H](CO)C(=O)O)C(C)C,SUP-T1,12G5 competition,human plasma,2 h,relative to: time 0,IC50 fold increase,12 fold
O=C(c1ccc(-c2cccc(C(F)(F)F)c2)cc1)N1CCN(c2ncccn2)CC1,MDCK-LE cells,,,,,Papp A-B,22 ×10⁻⁶ cm/s
COc1cc(N2CCN(C(=O)C3CCCN3)CC2)ccc1Nc1ncc(Cl)c(Nc2ccccc2P(C)(C)=O)n1 (stereo not drawn),NCI-H3122,"cell growth or viability, CCK-8",,"0.25 µM, 48 h",,viability,20%
COc1c(F)c(F)c(Cn2c3cc(=O)n(Cc4cccc(C(F)(F)F)n4)c(C)c3c(=O)n2-c2ncc(F)cc2F)c(F)c1F,HEp-2,cytotoxicity,,48 (unit not given),,Hill slope,1.18
Clc1ccc2c(c1)N(CCCN1CCN(CCn3cc(CN4CCCNCCN(Cc5cn(CCN6CCN(CCCN7c8ccccc8Sc8ccc(Cl)cc87)CC6)nn5)CCCNCC4)nn3)CC1)c1ccccc1S2.[Cu+2].[O-][Cl+3]([O-])([O-])[O-].[O-][Cl+3]([O-])([O-])[O-],differentiated SH-SY5Y,,,"10 µM, 24 h, compound alone",relative to: vehicle,cytotoxicity,not toxic
CN1CCCNC(=O)c2cccc(c2)C(=O)NCCCN(C)CCCNc2cccc3c2C(=O)c2cccc(c2C3=O)NCCC1,HSC-2,"cell growth or viability, CCK-8",,"1.5 µM, 48 h",,viability,35.5%
O=C(O)CCCOc1ccc(O)cc1-c1cc(-c2ccccc2C(F)(F)F)n(-c2ccccc2)n1,human iPSC-derived cardiomyocytes,,,200 µM,,beat rate,40.1 ± 1.1 min⁻¹
Cc1ccc(-c2cc(CN3c4ccccc4C=Cc4ccccc43)on2)cc1,BJ,cell growth or viability,,,,IC50,21.3 µM
Cc1c2c(=O)n(-c3ccccn3)n(Cc3c(Cl)cccc3Cl)c2cc(=O)n1Cc1cccc(C(F)(F)F)n1,HEp-2,,,48 (unit not given),,CC50,> 5 µM
C1=Cc2ccccc2N(Cc2cc(-c3ccccc3)no2)c2ccccc21,BJ,cytotoxicity,,,,IC50,> 30 µM
COC1=CC2=NCCc3c[nH]c(c32)C1=O,HCT-116,"cell growth or viability, MTT",,72 h,,CC50,35 µM
